Measured values collected from several papers.
Protocols differ between the studies behind these lines. pEC50: −log10 of the molar value.
UniProt P22607, sequence (whole entry, looked up): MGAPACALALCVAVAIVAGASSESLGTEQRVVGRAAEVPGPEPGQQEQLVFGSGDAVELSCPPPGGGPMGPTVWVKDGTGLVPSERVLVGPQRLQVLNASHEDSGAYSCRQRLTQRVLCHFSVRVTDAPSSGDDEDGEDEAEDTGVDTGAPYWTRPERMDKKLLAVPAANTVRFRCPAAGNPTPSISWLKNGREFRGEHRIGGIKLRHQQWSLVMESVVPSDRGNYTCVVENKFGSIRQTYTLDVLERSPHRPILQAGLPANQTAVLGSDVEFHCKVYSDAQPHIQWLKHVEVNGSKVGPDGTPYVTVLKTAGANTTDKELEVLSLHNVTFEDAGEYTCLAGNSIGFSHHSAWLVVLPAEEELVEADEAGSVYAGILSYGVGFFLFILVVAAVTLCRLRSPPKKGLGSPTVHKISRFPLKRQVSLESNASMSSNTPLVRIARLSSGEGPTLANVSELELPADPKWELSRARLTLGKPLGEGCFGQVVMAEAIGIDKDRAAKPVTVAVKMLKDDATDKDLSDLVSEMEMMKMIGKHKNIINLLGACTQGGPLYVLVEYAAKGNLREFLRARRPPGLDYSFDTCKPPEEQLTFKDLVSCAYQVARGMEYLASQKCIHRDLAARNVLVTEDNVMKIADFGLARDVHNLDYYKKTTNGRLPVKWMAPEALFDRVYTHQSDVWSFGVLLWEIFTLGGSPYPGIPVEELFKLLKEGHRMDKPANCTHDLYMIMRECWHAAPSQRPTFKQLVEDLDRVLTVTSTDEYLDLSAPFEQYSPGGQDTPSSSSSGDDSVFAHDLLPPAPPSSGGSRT
UniProt Q00534, sequence (whole entry, looked up): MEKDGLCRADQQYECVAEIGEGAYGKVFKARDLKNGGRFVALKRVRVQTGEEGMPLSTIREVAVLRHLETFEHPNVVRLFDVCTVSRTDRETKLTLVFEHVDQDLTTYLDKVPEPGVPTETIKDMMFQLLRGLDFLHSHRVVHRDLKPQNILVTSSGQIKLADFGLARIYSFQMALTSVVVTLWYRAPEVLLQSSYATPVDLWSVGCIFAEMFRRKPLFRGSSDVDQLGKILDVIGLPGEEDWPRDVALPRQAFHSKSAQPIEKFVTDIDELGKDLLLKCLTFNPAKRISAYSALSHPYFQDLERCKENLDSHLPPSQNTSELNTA
UniProt O00444, sequence (whole entry, looked up): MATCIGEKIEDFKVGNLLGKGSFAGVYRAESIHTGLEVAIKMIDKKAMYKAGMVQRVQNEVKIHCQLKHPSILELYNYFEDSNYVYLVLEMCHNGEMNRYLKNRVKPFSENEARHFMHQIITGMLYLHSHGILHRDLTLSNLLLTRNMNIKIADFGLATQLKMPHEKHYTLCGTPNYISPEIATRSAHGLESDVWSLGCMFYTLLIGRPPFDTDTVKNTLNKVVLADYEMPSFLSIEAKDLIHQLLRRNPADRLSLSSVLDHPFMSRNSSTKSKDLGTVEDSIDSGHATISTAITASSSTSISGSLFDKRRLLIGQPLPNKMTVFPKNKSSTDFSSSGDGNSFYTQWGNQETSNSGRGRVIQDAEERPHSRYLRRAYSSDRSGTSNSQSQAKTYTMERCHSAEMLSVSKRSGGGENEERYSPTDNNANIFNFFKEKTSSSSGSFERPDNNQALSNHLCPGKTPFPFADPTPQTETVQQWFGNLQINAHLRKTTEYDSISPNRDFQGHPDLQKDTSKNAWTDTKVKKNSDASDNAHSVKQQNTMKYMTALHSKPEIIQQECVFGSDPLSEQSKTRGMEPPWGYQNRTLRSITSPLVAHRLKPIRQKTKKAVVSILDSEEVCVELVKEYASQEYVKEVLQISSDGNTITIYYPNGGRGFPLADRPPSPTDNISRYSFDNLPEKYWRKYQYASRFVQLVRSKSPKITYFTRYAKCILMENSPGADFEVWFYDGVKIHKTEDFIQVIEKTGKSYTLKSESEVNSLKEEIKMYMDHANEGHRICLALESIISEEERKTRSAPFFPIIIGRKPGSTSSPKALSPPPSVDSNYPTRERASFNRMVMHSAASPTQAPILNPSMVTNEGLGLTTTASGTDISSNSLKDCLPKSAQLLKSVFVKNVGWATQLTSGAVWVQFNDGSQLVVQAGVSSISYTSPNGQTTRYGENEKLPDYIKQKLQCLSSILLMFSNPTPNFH

SMILES	tested on	test	system	conditions	endpoint	value
CCOC(=O)c1c(NC(CC)CO)c2c([nH]c1=O)CCC2 (centres unmarked)	Human immunodeficiency virus 1	viral replication, inhibitor	IIIB	72 h	pEC50	< 4.00
COc1cc(-c2cncc3c2CN(C)Cc2cc(N4CCNCC4)ccc2-3)cc(OC)c1OC	FGFR3 (Homo sapiens, UniProt P22607)	enzyme activity, inhibitor	–	1 µM	remaining activity	93%
CC(C)N(c1ccc(Cl)c(F)c1)c1ccc(NC(=O)CN(C)c2ccccc2N2CCCC2=O)c(F)c1	Plasmodium falciparum	parasite growth	3D7	72 h, blood stage	pEC50	8.70
O=C(NCc1cc(O)c(O)c(Br)c1)c1nccs1	Porcine epidemic diarrhea virus	viral replication, inhibitor, qPCR	Vero C1008	–	pEC50	4.97
CNc1ncc2c(/C=C/C(=O)N3CCC(OC)CC3)nn(Cc3cccc(C(F)(F)F)c3)c2n1	Cyclin-dependent kinase 6, with cyclin D1 (CDK6, Homo sapiens, UniProt Q00534)	enzyme activity, inhibitor, radiometric	–	1 µM	remaining activity	86%
Cc1ccc(Oc2ccc(NC(=O)CNc3ccccc3N3CCCC3)cc2)cc1	Plasmodium falciparum	parasite growth	3D7	72 h, blood stage	pEC50	< 5.00
Cc1cccc2cc[nH]c12	Cryptosporidium parvum	parasite growth	HCT-8	24 h, intracellular	pEC50	3.45
Cc1cc([C@@H](C)Nc2ccccc2C(=O)O)c2nc(N3CCC(F)(F)CC3)c(C#N)c(=O)n2c1	PLK4 (Homo sapiens, UniProt O00444)	binding, competition with immobilised ligand	–	1 µM	remaining binding	76%
CCN(CC(=O)Nc1ccc(Oc2ccc(C)cc2)cc1)c1ccccc1N1CCCC1=O	Plasmodium falciparum	parasite growth	3D7	72 h, blood stage	pEC50	5.94
Cc1cccc2[nH]ccc12	Cryptosporidium parvum	parasite growth	HCT-8	24 h, intracellular	pEC50	3.64
C/C=C/CNc1c2c([nH]c(=O)c1C(=O)OCC)CCC2	Human immunodeficiency virus 1	viral replication, inhibitor	IIIB	72 h	pEC50	4.40
O=C(CNc1ccccc1N1CCCC1=O)Nc1ccc(Oc2ccc(F)cc2)cc1	Plasmodium falciparum	parasite growth	3D7	72 h, blood stage	pEC50	5.51
COc1ccc2[nH]ccc2c1	Cryptosporidium parvum	parasite growth	HCT-8	24 h, intracellular	pEC50	3.16
COc1ccc(C(=O)NCc2cc(O)c(O)c(Br)c2)cc1	Porcine epidemic diarrhea virus	viral replication, inhibitor, qPCR	Vero C1008	–	pEC50	5.50
COc1ccc2cc[nH]c2c1	Cryptosporidium parvum	parasite growth	HCT-8	24 h, intracellular	pEC50	3.46
CN1CCN(c2ccc(-c3ccc4nncc(Nc5cnccn5)c4c3)cc2)CC1	Trypanosoma cruzi	parasite growth	C2C12	intracellular, amastigote	pEC50	< 5.00
Cc1ccc(Oc2ccc(NC(=O)CNc3ccccc3-n3ccccc3=O)cc2)cc1	Plasmodium falciparum	parasite growth	3D7	72 h, blood stage	pEC50	< 5.00
CCCCNc1c2c([nH]c(=O)c1C(=O)OCC)CCC2	Human immunodeficiency virus 1	viral replication, inhibitor	IIIB	72 h	pEC50	4.48
COc1cccc2[nH]ccc12	Cryptosporidium parvum	parasite growth	HCT-8	24 h, intracellular	pEC50	3.34
CCOC(=O)c1c(NCCCO)c2c([nH]c1=O)CCC2	Human immunodeficiency virus 1	viral replication, inhibitor	IIIB	72 h	pEC50	< 4.00
O=C(CNc1ccccc1N1CCCC1=O)Nc1ccc(Oc2cccc(Cl)c2)cc1	Plasmodium falciparum	parasite growth	3D7	72 h, blood stage	pEC50	< 5.00
C=CC(=O)N1CCC(COCC(=O)N2CCN(c3nc(-c4cnc(N)nc4C(F)F)nc(N4CCOC[C@@H]4C)n3)CC2)CC1	Tyrosine-protein kinase ABL1, non-phosphorylated (ABL1, Homo sapiens, UniProt P00519, H396P)	binding, competition with immobilised ligand	–	1 µM	remaining binding	99%
O=C1Nc2ccc(Cl)cc2[C@@](C#CC2CC2)(C(F)(F)F)O1	Human immunodeficiency virus 1	viral replication, inhibitor	IIIB	72 h	pEC50	8.41

Excerpt of the above:
SMILES	tested on	test	system	conditions	endpoint	value
C=CC(=O)N1CCC(COCC(=O)N2CCN(c3nc(-c4cnc(N)nc4C(F)F)nc(N4CCOC[C@@H]4C)n3)CC2)CC1	Tyrosine-protein kinase ABL1, non-phosphorylated (ABL1, Homo sapiens, UniProt P00519, H396P)	binding, competition with immobilised ligand	–	1 µM	remaining binding	99%
Cc1cc([C@@H](C)Nc2ccccc2C(=O)O)c2nc(N3CCC(F)(F)CC3)c(C#N)c(=O)n2c1	PLK4 (Homo sapiens, UniProt O00444)	binding, competition with immobilised ligand	–	1 µM	remaining binding	76%
CCOC(=O)c1c(NCCCO)c2c([nH]c1=O)CCC2	Human immunodeficiency virus 1	viral replication, inhibitor	IIIB	72 h	pEC50	< 4.00
